# Results pooled from the literature.
# Protocols differ between the studies behind these lines. Values joined by “and” are separate records of one study, mostly repeats; a detail may differ. ± marks the error that the study gave.
SMILES,tested on,test,system,conditions,how to read,measurement,result
O=C(/C=C/C=C/C=C/C1CCCCC1)NC1=C[C@@](O)(/C=C/C=C/C=C/C(=O)NC2=C(O)CCC2=O)[C@@H]2O[C@@H]2C1=O,HuP-T3,"cell growth, CellTiter-Glo",,78 h,,GI50,19.5 µM
c1ccc(-c2n[nH]cc2-c2ccnc3ccccc23)nc1,orf19.4144 kinase Candida albicans,MIB/MS competition binding,Candida albicans cell lysate,1 µM,"baseline: DMSO, lower = stronger binding",log2 fold change,1.33
CC(C)n1ncc2c(C(=O)NCC3(C)CNC3)cc(C3CC3)nc21,coxsackievirus B3,CPE,Vero,5 µM,,cell protection,103% and 96.8%
N#Cc1ccn2c(-c3ccncc3)c(-c3ccc(F)cc3)nc2c1,orf19.4144 kinase Candida albicans,MIB/MS competition binding,Candida albicans cell lysate,100 nM,"baseline: DMSO, lower = stronger binding",log2 fold change,0.135
O=C(N1CCc2ccccc21)n1ccnn1,Arabidopsis thaliana,,"wild type, seedlings","0.1 µM, continuous red light, together with: 0.3 µM karrikin KAR2",,hypocotyl length,13.3 mm
CCn1cc(-c2cc(Cn3ccnc3)cc3c2CCN([C@H](c2cc(OC)ccn2)C2CC2)C3=O)c(C(F)(F)F)n1,HPAF-II,cell growth,,120 h,,EC50,> 30 µM
CC/C(=N\NC(=O)NCc1cccc(O)c1)c1ccc(O)c(C)c1O,SK-OV-3,Western blot,,"20 µM, 1 h, 3D gellan gum culture, unit not given",baseline: DMSO,LATS band intensity,1 ± 0.58
CN[C@H](CC(C)C)C(=O)N[C@H]1C(=O)N[C@@H](CC(N)=O)C(=O)N[C@H]2C(=O)N[C@H]3C(=O)N[C@H](C(=O)N[C@H](C(=O)O)c4cc(O)cc(O)c4-c4cc3ccc4O)[C@H](O)c3ccc(c(Cl)c3)Oc3cc2cc(c3O[C@@H]2O[C@H](CO)[C@@H](O)[C@H](O)[C@H]2O[C@H]2C[C@](C)(N)[C@H](O)[C@H](C)O2)Oc2ccc(cc2Cl)[C@H]1O,Enterococcus faecium,agar dilution,compound-susceptible isolates,,,MIC90,4 µg/mL
Cn1cc(-c2ccc(-c3cncc(Cl)c3N3CCC4(CCNC4=O)CC3)cc2)cn1,COLO 205,"gene expression, microarray, item: EGFR mRNA",,"concentration not given, 6 h",baseline: untreated cells,log2 fold change,-2.28
C=C[C@]1(C)C[C@@H](OC(=O)CSCCN(CC)CC)[C@]2(C)[C@H](C)CC[C@]3(CCC(=O)[C@H]32)[C@@H](C)[C@@H]1O,Mycoplasma gallisepticum,,"infected chickens, lung","oral, 40 mg/kg",,mycoplasma count,3.32 log10 CFU/mL
Cc1n[nH]c2ccc(-c3cc(OC[C@@H](N)Cc4ccccc4)cnc3-c3ccoc3)cc12,orf19.6492 kinase Candida albicans,MIB/MS competition binding,Candida albicans cell lysate,1 µM,"baseline: DMSO, lower = stronger binding",log2 fold change,-0.0346
c1coc(-c2n[nH]cc2-c2ccnc3ccccc23)c1,RIM15 (Candida albicans),"kinase binding, MIB/MS competition",Candida albicans lysate,10 µM,baseline: DMSO,log2 fold change,0.63
CC(C)NCC(O)c1ccc(O)c(O)c1 (centres unmarked),,,"ventricular cardiomyocytes, C57BL/6 mouse","dose not given, 0.288 s",,sarcomere length,1.71 µm
NC(=O)c1cnc2[nH]ccc2c1N[C@@H]1[C@@H]2CC3C[C@H]1C[C@@](O)(C3)C2,,"flow cytometry, item: CD4+ central memory T cells","Japanese healthy subjects, peripheral blood","oral, 10 mg twice daily, day 4",,change from baseline,0.1%

# Some of these lines once more:
SMILES,tested on,test,system,conditions,how to read,measurement,result
NC(=O)c1cnc2[nH]ccc2c1N[C@@H]1[C@@H]2CC3C[C@H]1C[C@@](O)(C3)C2,,"flow cytometry, item: CD4+ central memory T cells","Japanese healthy subjects, peripheral blood","oral, 10 mg twice daily, day 4",,change from baseline,0.1%
CCn1cc(-c2cc(Cn3ccnc3)cc3c2CCN([C@H](c2cc(OC)ccn2)C2CC2)C3=O)c(C(F)(F)F)n1,HPAF-II,cell growth,,120 h,,EC50,> 30 µM
